Measured values collected from several papers.
Parts stem from different laboratories: compare values within a part only.

Set 1
Target: Histone acetyltransferase KAT6A, winged helix 2, GST fusion (KAT6A, Homo sapiens, UniProt Q92794, residues 85-181)
Method: protein binding microarray
Molecule type: double-stranded DNA, one strand shown
Sample: in vitro
Concentration: not given
Setting: 8-mer, flanks averaged, mean of 2 arrays, mostly near background
Reference: not given
Reading: higher = stronger binding
Quantity: E-score
Residues (chain): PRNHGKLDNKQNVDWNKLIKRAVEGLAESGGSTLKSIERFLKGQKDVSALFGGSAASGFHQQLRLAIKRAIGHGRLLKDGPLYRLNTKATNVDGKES
CTCACACA: 0.0355
ATACGCGG: -0.127
ACGGTATG: -0.0646
TAGCCCCA: -0.0909
ACTCGCGG: 0.147
CCATGAGA: -0.00406
CTAATGCC: -0.0747
AATCCCCT: -0.0499
ATGGGGCG: 0.0418
ATTGGCCG: -0.071
ATACTCCG: 0.0973
AGATTTGC: -0.0309
AAATTACG: -0.0529
AATAGTGC: 0.0565
AAACGATC: 0.0702
CTCACTGC: 0.0387
CGATGCAG: -0.0286
GTGGGTCA: -0.0248
ATGGTCCC: -0.141
GAAAGGGA: -0.0168

Set 2
Target: RNA binding protein fox-1 homolog 2, RRM domain, GST-SBP tag (RBFOX2, Homo sapiens, UniProt O43251-10, residues 100-194)
Method: RNA Bind-n-Seq
Molecule type: RNA
Sample: in vitro
Concentration: 365 nM
Setting: natural RNA segment, single round, ends assumed
Reference: no-protein control
Reading: higher = stronger binding
Quantity: RBNS enrichment (R)
Residues (chain): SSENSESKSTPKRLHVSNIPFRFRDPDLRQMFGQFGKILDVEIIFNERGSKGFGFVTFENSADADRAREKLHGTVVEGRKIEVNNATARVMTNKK
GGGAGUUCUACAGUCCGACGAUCCACACUGGACAGGUGACUGUAUGGUAGAGACUGUGAUCUGGGAACUUUUUGCUGUACAAAUCUGUUUAAAAAAAAAAAAAAGUAACUCAUUGAAUUAACUUGCAGUGGUGUGGAAUUCUCGGGUGCCAA: 0.983
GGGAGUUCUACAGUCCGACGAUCUCUCACUUUCCUCAUUGGCUUAUUAAUUAGCUCCUUACUUUGUUGCCUUUGCUUCAAAUGGUUUGAGUCACCAACAGACUUGUUUGGGAGUGGCCUCAGUAAAUGACAGAUGGAAUUCUCGGGUGCCAA: 0.418
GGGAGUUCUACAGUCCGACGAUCCAGUGUCUCCUAACAAACUAGUACUGGACUUACAGUACUGCCAAAUCUUUGUUAAGUUUCAUGAUGUGUUAGUACACUGUUCUAUUGCUGUAAAGAGACACCAUGACAAAUGGAAUUCUCGGGUGCCAA: 0.312
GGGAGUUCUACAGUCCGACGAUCUUCAUUUACUACGAUCUGUCCACACUCGAAAAGUAGGCUACAUUAAAUCAUGCUAGCAGCCUUAAGAGGUAAAGCCAUUGGAGAGAAGUGUCAAGCAUGGGAGCUAAAAUUGGAAUUCUCGGGUGCCAA: 2.02
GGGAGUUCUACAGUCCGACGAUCAAGUGUACCUGUGUACAUAACUCUGUAAAAACACUGAAAAAUUAUACUAACUUAUUUAUGUUAAAAGAUUUUUUUUAAUCUAGACAAUAUACAAGCCAAAGUGGCAUGUUUGGAAUUCUCGGGUGCCAA: 1.17
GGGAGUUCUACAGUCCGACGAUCUGGCCUUGGCGAGGGCUGGUCUGUGCAUAGAAGGGAUAGUGGCCACACUGCAGCUGAGGCCCCAGGUGGCAGCCAUGGAUCAUGUAGACUUCCAGAUGGUCUCCCGAACCUGGAAUUCUCGGGUGCCAA: 1.9
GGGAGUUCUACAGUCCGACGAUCUUUUCUACACAUUUUGCCAGGUCAGGCAUUUUGCUAGUAAGCAGGAUGCCCCCAACUCUCCCUGCCAUGGAGGAUUCUUUUUUUUAAGCUUUGGGUGCUUUUUUAAUACUUGGAAUUCUCGGGUGCCAA: 0.627
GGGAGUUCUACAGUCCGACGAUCUUAUUCUUAUCUUUCCACCCAAACACCUACACAACGUUUAGGCUUCCUGUAAGGUUUGAAUGAGACAGAUGUACUCUGAAGGCUGGUGGUAAAUGUGUUUGAUGACCAGAUGGAAUUCUCGGGUGCCAA: 0.664
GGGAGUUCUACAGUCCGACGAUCGGGAGAGGCCUCGGCUGUCUCCUGUCCCCGGCGGGGUGCCUGCUGUCCGUCCCGCUUUCAUGUUACUGUUGCAGCUUGUGCUGAGCCUGCCCAGUUGGAGGAGACUGGGCUGGAAUUCUCGGGUGCCAA: 1.21
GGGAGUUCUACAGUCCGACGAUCGGUUAUAGCUUACUGAAGAAAUCUUUCCAGUUAGAAGGAGGUUCUAAUAUUCACAUGUUCUAAUACUUUGUUUAUUGUAAAACAGCUAAAUUUGGAGAUACGUAAAGCCUUGGAAUUCUCGGGUGCCAA: 0.552
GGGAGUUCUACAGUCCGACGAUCGGUUCAAAACUUACUGCAUUUUAAUUUUUCACUUAACUUAUAACAUGUCUUGCUUCUCCAGUGUGUGGAAGGCACCGGGCAGUUUGCAGAGAUAAGCAAAACACAGUUCCUGGAAUUCUCGGGUGCCAA: 3.69
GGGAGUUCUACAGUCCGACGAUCUGGGCUUGGCAGUAGGAUAGACUUGAUGCCUGCGUUUUGGACCUUAGACCUGCCCGCCUUCGUUCCUACAGUUAGAUCAUCUUGAGAGAUACUUAAAAGUAUCUCCUCCUUGGAAUUCUCGGGUGCCAA: 1.01

Set 3
Target: Ras GTPase-activating protein-binding protein 1, full length (G3BP1, Homo sapiens, UniProt Q13283)
UniProt Q13283, sequence (whole entry, looked up): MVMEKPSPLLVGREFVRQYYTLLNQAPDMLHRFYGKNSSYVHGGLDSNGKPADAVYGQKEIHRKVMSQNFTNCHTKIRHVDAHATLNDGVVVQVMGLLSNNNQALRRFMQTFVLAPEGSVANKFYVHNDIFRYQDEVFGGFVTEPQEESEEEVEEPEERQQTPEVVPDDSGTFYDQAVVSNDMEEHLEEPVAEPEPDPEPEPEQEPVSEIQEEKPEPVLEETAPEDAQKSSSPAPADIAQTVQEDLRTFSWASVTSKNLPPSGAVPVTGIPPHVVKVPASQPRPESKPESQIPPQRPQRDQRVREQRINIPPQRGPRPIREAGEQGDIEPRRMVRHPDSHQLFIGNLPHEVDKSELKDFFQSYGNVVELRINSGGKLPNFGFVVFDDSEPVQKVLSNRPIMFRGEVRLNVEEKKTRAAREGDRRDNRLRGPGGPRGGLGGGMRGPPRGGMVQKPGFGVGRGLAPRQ
Method: RNA Bind-n-Seq
Molecule type: RNA
Sample: in vitro
Concentration: 200 nM
Setting: whole 134-nt RNA, ends assumed
With: 150 mM KCl
Reference: input library
Reading: higher = stronger binding
Quantity: log2 enrichment
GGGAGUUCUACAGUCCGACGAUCGUCCUGUGCUACACAUCGUAUGUACCGAAUCGGGUUUUUUUGGGUUUGGGUUUUUGGGAAAGUAUUAUGUUACGCCGUUCGGAUCUGCACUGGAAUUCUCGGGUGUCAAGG: -0.4
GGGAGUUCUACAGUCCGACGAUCAGUCCUGUGCUACACAUCGUAUGUACCGAAUCGGGGAAAGGGGAAAGGGGUUUGGGGAAAGUAUUAUGUUACGCCGUUCGGAUCUGCACUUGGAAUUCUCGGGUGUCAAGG: 0.551
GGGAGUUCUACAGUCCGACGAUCUGGGAGGUGGAUUUUGUUUAUUUUUUUAGCUCAUUUCGAGGGGUGGGAAUUUUUUUUUAAUAUGUGUCAUGAAUAAAGUUGUUUUUGAAAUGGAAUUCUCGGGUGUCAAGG: 0.0754
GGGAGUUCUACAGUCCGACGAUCACCAUGCAGGUGGGCAUCUUUGGGAAGUGGGGCAAGGGGGGGAUAGUGAGGGGGGUAACACUUUGGGAACAGGUGGUCCCAGGUCGUUUCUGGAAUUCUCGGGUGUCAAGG: 1.04
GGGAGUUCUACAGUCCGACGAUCGCAGGAAGUAAAAACAAAUGGAAAUGCUUCGGAUAGUGACAGGGGUGGGGGUUGCUAAGGAAAGGGUGGGAUGGGAGUGGGUAAAGAGUUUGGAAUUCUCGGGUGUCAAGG: 0.867
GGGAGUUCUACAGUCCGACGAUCUGCUGGAGUGGCAGAAGACUUUUGAGGAGAAGCUCACGCCGUUGCUGAGUGUGCGGGAGUCACUCUCAGAGGAAGAGGCCCAGAAGAUGGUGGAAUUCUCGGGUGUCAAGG: -1.29
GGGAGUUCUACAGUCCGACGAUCGUCCUGUGCUACACAUCGUAUGUACCGAAUCGGGUUUUUUUGGGUGGGAAAAAAAGGGAAAGUAUUAUGUUACGCCGUUCGGAUCUGCACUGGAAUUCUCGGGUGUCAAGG: -0.361
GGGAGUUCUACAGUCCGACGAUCAGUCCUGUGCUACACAUCGUAUGUACCGAAUCGGGGUGGGGAAAGGGGUUUUUGGGGAAAGUAUUAUGUUACGCCGUUCGGAUCUGCACUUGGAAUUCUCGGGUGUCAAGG: 0.503
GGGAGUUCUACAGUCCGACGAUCAGUCCUGUGCUACACAUCGUAUGUACCGAAUCGGGGUUUUUGGGGAAAGGGGUGGGGAAAGUAUUAUGUUACGCCGUUCGGAUCUGCACUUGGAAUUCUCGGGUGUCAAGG: 0.242
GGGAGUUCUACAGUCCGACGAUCAGUCCUGUGCUACACAUCGUAUGUACCGAAUCGGUUUUUGGAAAAAAAGGUUUUUGGAAAGUAUUAUGUUACGCCGUUCGGAUCUGCACUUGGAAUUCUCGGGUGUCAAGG: -1.66
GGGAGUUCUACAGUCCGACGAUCUCCUGUGCUACACAUCGUAUGUACCGAAUCGGAAAAAAGGGAAAAAAGGGAAAAAAGGGAAAGUAUUAUGUUACGCCGUUCGGAUCUGCAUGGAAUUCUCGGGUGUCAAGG: -0.605
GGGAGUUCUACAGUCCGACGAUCGCAGGAAGUAAAAACAAAUGGAAAUGCUUCGGAUAGUGGCAGGGGUGGGGGUUGCUACGGAAAGGGUGGGAUGGGAGUGGGUAAAGAGUUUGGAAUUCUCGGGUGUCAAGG: 0.812
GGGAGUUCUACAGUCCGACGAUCUGGCCCUGGUGGCAUGCGGGGAGGAAGAGGUGGCCUCAUGGAUCGUGGUGGUCCCGGUGGAAUGUUCAGAGGUUGCCGUGGUGGAGACAGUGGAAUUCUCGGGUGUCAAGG: -0.132
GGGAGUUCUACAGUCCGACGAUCCUGUGCUACACAUCGUAUGUACCGAAUCGGGGAAAAAGGGGUUUUUUUGGGGAAAAAGGGGAAAGUAUUAUGUUACGCCGUUCGGAUCUGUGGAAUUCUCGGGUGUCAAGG: -0.0746

Set 4
Target: Interferon regulatory factor 7, full length, phosphomimetic (IRF7, Homo sapiens, UniProt Q92985, residues 1-503, S101K/S471D/S472D/S475D/S476D/S477D/S483D/S484D/S487D)
UniProt Q92985, sequence (whole entry, unmodified, looked up): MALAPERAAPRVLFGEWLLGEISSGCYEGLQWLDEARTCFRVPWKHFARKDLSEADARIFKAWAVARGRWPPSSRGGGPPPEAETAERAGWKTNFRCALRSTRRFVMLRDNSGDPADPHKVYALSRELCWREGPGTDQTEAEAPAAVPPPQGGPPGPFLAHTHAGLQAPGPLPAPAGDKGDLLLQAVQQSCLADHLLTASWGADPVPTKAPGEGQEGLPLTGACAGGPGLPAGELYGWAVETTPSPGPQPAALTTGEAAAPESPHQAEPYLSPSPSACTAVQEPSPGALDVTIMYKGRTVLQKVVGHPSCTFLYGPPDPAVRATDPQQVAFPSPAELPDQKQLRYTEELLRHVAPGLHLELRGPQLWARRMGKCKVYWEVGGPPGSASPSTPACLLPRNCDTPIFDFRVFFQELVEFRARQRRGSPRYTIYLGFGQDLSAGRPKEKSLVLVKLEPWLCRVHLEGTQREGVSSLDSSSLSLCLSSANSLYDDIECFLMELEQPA
Method: protein-binding microarray
Molecule type: double-stranded DNA, one strand shown
Sample: in vitro
Concentration: 250 nM
Setting: 60-bp whole probe
With: salmon DNA 0.4 mg/ml
Reference: random background probes
Reading: higher = stronger binding
Quantity: log fluorescence
Constant ends, left off below: GCCTAGCAC … GTCTTGATTCGCTTGACGCTGCTG
GACGATCTCGGACTGGAGACGTGCTAG: -0.305 z-score
TTAGGTTTCGGGTTCGGTTAGTGCTAG: 11.2 z-score
TTAGATCTCAGTATCGGTTAGTGCTAG: 0.891 z-score
GACCGTTTCGGTTCCGGGACGTGCTAG: 7.29 z-score
TGAGGTTTCGACACTGGGTTAGTGCTA: 3.16 z-score
GACGTTCTCGGACTGGGGACGTGCTAG: 0.401 z-score
TTCTTACTTTGGGATTCTGAGTGCTAG: 0.466 z-score
GACGGTTTTCTACTGCTGACGTGCTAG: 0.841 z-score
TCATTTATCAATCATTTTACTGTGCTA: 1.51 z-score
AATCATTCACCTGTCGTTGAGTGCTAG: -0.0484 z-score
TTCGGTATCGGACTGGGTTAGTGCTAG: 0.185 z-score
CTGGAGAGACGGAGTCTCCAGTGCTAG: -0.837 z-score
TTAGGACTGCTTACCCTTTAGTGCTAG: -0.137 z-score
GGAGAGTTCCAGGAGGTCGAGTGCTAG: -0.766 z-score
TTAGGACTGGGGACTGGGGTAGTGCTA: -0.385 z-score
GAGGGACTGGGGTATCGGGACGTGCTA: -0.306 z-score
TTAGGTATTCTACTGCTTTAGTGCTAG: -0.153 z-score
GGCGGACTGGACACTGGGGACGTGCTA: -1.09 z-score
